Measurements from different studies.
Numbered parts are unrelated; each lists some results of a single study.

Block 1
Cell line: yeast with cyclin D2-Cln2 chimera
Read-out: cell growth
Mode: binder
Method: competitive growth deep sequencing
Form: peptide
Tested at: concentration not given
Notes: peptide tiling library
Reading: direction not given
Quantity: growth enrichment score
RRVLCFDS: -0.0115
NARRSLNFGGSTGT: -0.364
LRRQLSFSED: -0.0585
DSDSDSEGGAAGGEAD: 0.798
IVLICAKRSLCAAFSV: -1.3
KPITLDTTDFQESFVT: 0.255
EPRNLLSLFEDTLDPT: -0.77
GQLVIPLDELTLDTSF: 0.567
DTERAHSTLDEDLERW: 0.802
PLRKAKRARLCSSSSS: 0.244

Block 2
Target: RNA binding protein fox-1 homolog 2, RRM domain, GST-SBP tag (RBFOX2, Homo sapiens, UniProt O43251-10, residues 100-194)
Method: RNA Bind-n-Seq
Form: RNA
Matrix: in vitro
Tested at: 365 nM
Notes: natural RNA segment, single round, ends assumed
Baseline: no-protein control
Reading: higher = stronger binding
Quantity: RBNS enrichment (R)
Residues (chain): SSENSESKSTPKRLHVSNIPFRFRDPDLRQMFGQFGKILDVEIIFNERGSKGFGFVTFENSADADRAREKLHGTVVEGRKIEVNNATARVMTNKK
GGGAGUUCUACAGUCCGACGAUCUGGGUCCAGUUGCAGUGGCCAAUUUCCUGAAACCUGUCUUUUCCUAAGCGCUGACCGUGAACUCUGCCCUUGAUGGCGCUAAGCUGUCUGGACAGUGCGGUUACAAGCAUUGGAAUUCUCGGGUGCCAA: 0.309
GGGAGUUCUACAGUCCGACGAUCGGGUGUGCAGCCCUUGACCCAAAGCUUAAGCCUUGUGCUCCCAGGGGAGCCAGGAAGUGACGUGUGUGUCAUGUUACGGACAUCUGACUUUUGUGUGUGUGUGUGUGGGCUGGAAUUCUCGGGUGCCAA: 0.944
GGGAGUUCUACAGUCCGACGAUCUUGUCUGUGAAUGGAACCUCAGUAGGUAAUCCUGAUGAAGCUUAAAACCUUAGGGCAGUGUCUACAUGGGAAACAAGUAUGUGGAAAUUGACAAUCAUUUUUACCAAAUCUGGAAUUCUCGGGUGCCAA: 0.305
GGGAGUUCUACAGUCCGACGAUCAGGGCCACUUGAAAGCAUGAAGACCAGUUAUAUAGGGAACAGGUUUCUCUCAGUGGCACAUUUUGCUUUUUCUGAGCCCCAAAUACAUUGCCUGGGCAUGAACAUUGUUAUGGAAUUCUCGGGUGCCAA: 0.93
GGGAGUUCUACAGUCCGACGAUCACUGGGCUACUCCAUGACCAGGGGCAAAAUAGGCUUUUACCGCUGCGUUCUGGGAGCUCCUCCCCCUUCUGGGAGCUCCUCCCCCUCCCCAGAAGGCCAAGGGAUGUGGGUGGAAUUCUCGGGUGCCAA: 0.453
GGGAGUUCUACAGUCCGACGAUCCAGGGAAACAGUUCUUGGUCCCCCUUUUUUGGGGUCAGCAUUUUAAAAAUGCAAAGCCUAUAUGUUGAGACAUUGUAUUCCUAAUUAGAUUCUCUGUCCUUUGCACAUAAUGGAAUUCUCGGGUGCCAA: 0.493
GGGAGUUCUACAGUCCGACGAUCUUGUGCACAGGAAGAGCACCAGCCGCUGAGUCAGGAUCCUGUCAGUUCCAUGAGCUAUUCCUCUUUGGUUUGGCUUUUUGAUAUGAUUAAAAUUAUUUUUUAUUCCUUUUUGGAAUUCUCGGGUGCCAA: 0.664
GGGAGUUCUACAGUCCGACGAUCCACUACCCUCUCCUACCAUCUUCCUGGGAAUGUGGCCUACCACUACCAGAGCUCCUGCCUACCAAGACUGGAUGAAAGAAGCAGCUUUGAUGGGGUCUUUCCAUCCUCACUGGAAUUCUCGGGUGCCAA: 0.647
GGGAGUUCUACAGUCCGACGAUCUGUCAGAUGCUUGCAUCCAUGUGGACCACGAUGGGCCUCUAAAAAUUGGUGGGCAGGGGGUUUGCUUAUGAGUUUUCUCUGGAAACCGAUUUUACUCCUGGAUGUAUUGAUGGAAUUCUCGGGUGCCAA: 0.822
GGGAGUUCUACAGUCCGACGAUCUUCUUUGUCCUCAAAACUGGCAGAUACUGGAGCUGGGCAGCCAUUUUUCCUUUUAGUGUCUCUUGAAGCUACAUGGCUAGAAUAGAUAUGAUUUGGAGGGUUUAAUUUCCUGGAAUUCUCGGGUGCCAA: 0.264
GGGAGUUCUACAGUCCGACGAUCACUGUUCGUUAAAAUAAGCAUUCCCUUGACAGCACAGGAAGAAAAGCGAGGGAAAUGUAUGGAUUAUAUUAAAUGUGGGUUACUACACAAGAGGCCGAACAUUCCAAGUAUGGAAUUCUCGGGUGCCAA: 0.581
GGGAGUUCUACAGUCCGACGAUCAAAAGACAUAAAUGAAUUAGGCACCCAGAAGAAGUUGCAUGUUUGGAAAUGCAAUAUCUUGGGGAGACGUCAACUUCUGAAGUGACUUUGAAGGCAGGGCAGCUACCCAGUGGAAUUCUCGGGUGCCAA: 1.01

Block 3
Target: Sal-like protein 4, full length isoform B (SALL4, Homo sapiens, UniProt Q9UJQ4-2, residues 1-616)
Method: universal PBM
Form: double-stranded DNA, one strand shown
Matrix: in vitro
Tested at: not given
Notes: 8-mer, flanks averaged, mean of replicates
Reading: higher = stronger binding
Quantity: E-score
Target sequence (chain): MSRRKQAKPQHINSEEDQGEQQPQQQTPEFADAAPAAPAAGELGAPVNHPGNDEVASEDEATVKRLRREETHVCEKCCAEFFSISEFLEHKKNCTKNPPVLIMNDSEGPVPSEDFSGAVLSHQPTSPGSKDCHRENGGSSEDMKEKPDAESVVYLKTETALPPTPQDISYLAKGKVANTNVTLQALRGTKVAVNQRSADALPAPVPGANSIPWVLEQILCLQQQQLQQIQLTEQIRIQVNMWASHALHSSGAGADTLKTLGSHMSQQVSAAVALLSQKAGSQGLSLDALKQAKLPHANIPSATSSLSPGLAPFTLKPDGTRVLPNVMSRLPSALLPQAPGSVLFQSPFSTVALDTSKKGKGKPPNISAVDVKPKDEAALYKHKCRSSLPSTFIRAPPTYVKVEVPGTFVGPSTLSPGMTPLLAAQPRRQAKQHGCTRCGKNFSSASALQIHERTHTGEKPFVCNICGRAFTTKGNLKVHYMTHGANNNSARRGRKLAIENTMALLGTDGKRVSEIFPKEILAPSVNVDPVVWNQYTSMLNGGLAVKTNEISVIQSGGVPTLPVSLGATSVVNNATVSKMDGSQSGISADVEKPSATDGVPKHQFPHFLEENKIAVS
CAAAAGAC: 0.0755
AACTGTCC: -0.273
ATCTGGGA: -0.0521
AGGGCAGC: -0.239
TCTCATCA: 0.113
AAGCGTTA: 0.0585
GTCGGCAA: -0.308
GCAATTCC: 0.0367
ATTAGAAA: 0.226
CCGTCTGA: -0.255
GGGATCTA: -0.124
ATGCCCTG: -0.143
ACACGCCA: -0.202
TCGTAAAA: 0.328
ACCAGATG: -0.0391
ACGGCAGA: -0.159
GTAAAACA: 0.169
GTCCCTGA: -0.0829
CGAGTCTA: -0.0828
AAGCTTGG: -0.0681
GGGTGTAC: -0.0219
GAATAATA: 0.379
CTACGCGA: -0.153
GGATCCTA: -0.0903

Block 4
Target: Ras GTPase-activating protein-binding protein 1, RRM domain (G3BP1, Homo sapiens, UniProt Q13283)
Sequence of UniProt Q13283 (whole entry, looked up): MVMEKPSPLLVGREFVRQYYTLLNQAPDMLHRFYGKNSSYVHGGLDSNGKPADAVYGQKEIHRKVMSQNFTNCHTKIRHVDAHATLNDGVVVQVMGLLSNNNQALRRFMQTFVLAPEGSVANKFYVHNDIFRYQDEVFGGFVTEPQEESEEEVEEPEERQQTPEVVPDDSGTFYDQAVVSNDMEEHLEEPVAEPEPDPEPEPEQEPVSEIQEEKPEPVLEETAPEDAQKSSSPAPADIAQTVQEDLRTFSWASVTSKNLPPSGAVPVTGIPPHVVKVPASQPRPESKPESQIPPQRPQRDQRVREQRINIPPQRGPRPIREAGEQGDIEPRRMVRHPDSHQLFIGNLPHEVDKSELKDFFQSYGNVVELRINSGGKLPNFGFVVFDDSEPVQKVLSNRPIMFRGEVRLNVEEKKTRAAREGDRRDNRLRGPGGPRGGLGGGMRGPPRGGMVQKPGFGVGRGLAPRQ
Method: RNA Bind-n-Seq
Form: RNA
Matrix: in vitro
Tested at: 1 µM
Notes: whole 134-nt RNA, ends assumed
With: 150 mM KCl
Baseline: input library
Reading: higher = stronger binding
Quantity: log2 enrichment
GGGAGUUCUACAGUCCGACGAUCCUCAAGUCCUGUGCUACACAUCGUAUGUACCGAAUCGGUGGAGGUUUUUUUGGAAAGUAUUAUGUUACGCCGUUCGGAUCUGCACUUCCAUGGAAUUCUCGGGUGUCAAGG: -0.229
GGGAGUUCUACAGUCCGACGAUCUCCUGUGCUACACAUCGUAUGUACCGAAUCGGGCCCCCCCGGCCCCCCCGGCCCCCCCGGAAAGUAUUAUGUUACGCCGUUCGGAUCUGCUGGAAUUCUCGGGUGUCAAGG: -0.524
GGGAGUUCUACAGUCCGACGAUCCCUGUGCUACACAUCGUAUGUACCGAAUCGGAAAAAAAGGAAAAAAAGGGAAAAAAAGGGAAAGUAUUAUGUUACGCCGUUCGGAUCUGCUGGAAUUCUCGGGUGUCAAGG: 0.0528
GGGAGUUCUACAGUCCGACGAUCUUCCCUGAAGAUGAGAUCCCAGAGAAGGCCUGCAGGCGCCUGCUUGAAGGGAGGCGGCAGAAGAAGACGAAGAAGCAGAAGCGUCUGCUCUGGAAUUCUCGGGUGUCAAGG: -0.0309
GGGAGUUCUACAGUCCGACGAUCUCCUGUGCUACACAUCGUAUGUACCGAAUCAAACCCCCAAACCCCCAAACCCCCCCAAAAAAGUAUUAUGUUACGCCGUUCGGAUCUGCAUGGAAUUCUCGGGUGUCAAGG: -0.186
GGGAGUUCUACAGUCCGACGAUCAAGUCCUGUGCUACACAUCGUAUGUACCGAAUCGGUUUUUUUGGUUUUUUUGGUGGAAAGUAUUAUGUUACGCCGUUCGGAUCUGCACUUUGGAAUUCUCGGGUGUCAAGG: -0.466
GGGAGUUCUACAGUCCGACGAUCGUCCUGUGCUACACAUCGUAUGUACCGAAUCGGGGUUUUUUUGGGGAGGGGUUUGGGGAAAGUAUUAUGUUACGCCGUUCGGAUCUGCACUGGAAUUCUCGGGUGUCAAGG: 0.851
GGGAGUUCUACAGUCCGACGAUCAUUCUAUAAAUGGCAAGUAAGCCUGAAGUGAGGAUACUGCAAUUUUCGGAGAAAAGAACAGCAGCUCUUUAAGUGUUUGCAUUUUCUAUUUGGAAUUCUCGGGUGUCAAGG: -0.27
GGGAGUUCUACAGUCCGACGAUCUAACUUUAGAGGAGGAUCUGAUGGAUAUGGCAGUGGACGUGGAUUUGGCGAUGGCUAUAAUGGGUAUGGAGGAGGACCUGGAGGUGGCAAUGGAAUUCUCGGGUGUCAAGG: -0.79
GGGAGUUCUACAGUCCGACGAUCGCAGGAAGUAAAAACAAAUGGAAAUGCUUCGGAUAGUGGCAGGGGUGGGGGUUGCUAAGGAAAGGGUGGGAUGGGAAAAGGUAAAGAGUUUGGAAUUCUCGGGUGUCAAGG: 1.55

Repeated from above (block 1):
RRVLCFDS: -0.0115
LRRQLSFSED: -0.0585
DTERAHSTLDEDLERW: 0.802
IVLICAKRSLCAAFSV: -1.3
GQLVIPLDELTLDTSF: 0.567
